Measurements pooled from the literature.
Compare with care: the assays were run in different laboratories. ± marks the error that the study gave.
Cell line: HCT-116

The IC50 of `COc1ccc(-n2c(SCC(=O)NNC(=O)Nc3c(C)cccc3C)nc3ccccc3c2=O)cc1` is reported as over 100 µM.
The IC50 of `N=c1oc2ccccc2cc1C(=O)Nc1nnc(NC(=O)c2ccccc2)s1` is reported as 15.8 µM (cell growth or viability, MTT; 48 h).
With `COc1cc(-c2ccc(C(=O)N/N=C/c3ccc(Cl)cc3)c(C)n2)cc(OC)c1OC` the IC50 was 16.7 µM (cell growth or viability, MTT).
`COc1cc(O)c2c(c1)O[C@H](c1ccc(O)c(OC)c1)[C@@H](O)C2=O` gave an IC50 of 33 µg/mL (cell growth or viability, MTT; 48 h).
For `O=C(/C=C/c1ccc(F)cc1)c1nc2ccccc2n1Cc1cn([C@@H]2OC[C@@H](O)[C@H](O)[C@H]2O)nn1`, the IC50 was 5.1 µM (cell growth or viability, LDH; 48 h).
With `Oc1c(Cl)cc(Cl)c(Cl)c1Cc1c(O)c(Cl)cc(Cl)c1Cl` the IC50 was about 6 µM (cell growth or viability; 48 h).
`N#CC(=Cc1ccc(Cl)cc1)C(=O)Nc1nnc(NC(=O)c2ccccc2)s1` has an IC50 of 16.2 µM (cell growth or viability, MTT; 48 h).
For `CCSc1nnc(-c2ccc(-c3cc(OC)c(OC)c(OC)c3)nc2C)o1`, the IC50 was 9.74 µM (cell growth or viability, MTT).
The IC50 of `COC(CSc1nc2c3cnn(C(=O)CNc4ccc(C)cc4)c3ncn2n1)OC` is reported as 0.51 µM (cell growth or viability, MTT; 48 h).
With `N#CC(C(=O)Nc1nnc(NC(=O)c2ccccc2)s1)=C1Nc2ccccc2O1` the IC50 was under 10 µM (cell growth or viability, MTT; 48 h).
`Cc1ccc(NC(=O)NNC(=O)CSc2nc3ccccc3c(=O)n2-c2ccc(Cl)cc2)cc1` has an IC50 of 67.7 ± 3.8 µM.
For `COc1cc([C@H]2Oc3cc(O)cc(O)c3C(=O)[C@@H]2O)ccc1O`, the IC50 was 36 µg/mL (cell growth or viability, MTT; 48 h).
With `Cc1ccc(-c2cc(-c3c(Cl)cccc3Cl)c3c(=O)n(C)c(=O)n(C)c3n2)cc1` the IC50 was under 5 µM (cell growth or viability, MTT; 48 h).
`COc1cc(-c2ccc(C(=O)N/N=C/c3ccncc3)c(C)n2)cc(OC)c1OC` gave an IC50 of 13.3 µM (cell growth or viability, MTT).
`O=C(CNc1ccc(F)cc1)n1ncc2c1ncn1nc(SCCO)nc21` has an IC50 of 0.587 µM (cell growth or viability, MTT; 48 h).
`Cc1ccc(NCC(=O)n2ncc3c2ncn2[nH]c(=S)nc32)cc1` has an IC50 of 0.767 µM (cell growth or viability, MTT; 48 h).
For `O=c1c(/C=C/c2ccccn2)nc2ccccc2n1Cc1ccccc1`, the IC50 was 16.1 µM (cell growth or viability, MTT; 72 h).
`N#CC(=Cc1ccc(Cl)cc1Cl)C(=O)Nc1nnc(NC(=O)c2ccccc2)s1` has an IC50 of 3.97 µM (cell growth or viability, MTT; 48 h).
`Cc1cccc(C)c1NC(=O)NNC(=O)CSc1nc2ccccc2c(=O)n1-c1ccc(Cl)cc1` has an IC50 of 13.5 ± 1.1 µM.
`COc1cc(-c2ccc(-c3nnc(SCC4CCCCC4)o3)c(C)n2)cc(OC)c1OC` has an IC50 of 17.4 µM (cell growth or viability, MTT).
`CC(=O)OCCSc1nc2c3cnn(C(=O)CNc4ccc(C)cc4)c3ncn2n1` gave an IC50 of 0.009 µM (cell growth or viability, MTT; 48 h).
`CCOc1ccc(/C=N/NC(=O)c2ccc(-c3cc(OC)c(OC)c(OC)c3)nc2C)cc1` gave an IC50 of 25.2 µM (cell growth or viability, MTT).
The IC50 of `CN1CCN(c2ccc3nc(-c4c(N)c5c(F)cccc5[nH]c4=O)[nH]c3c2)CC1` is reported as 3.05 µM (cell growth or viability, MTT; 72 h).
`CCCCNNC(=O)c1ccc(Br)cc1` gave an IC50 of 11.2 µM (cell growth or viability, ATP luminescence; 96 h).
With `N#CC(=Cc1cccs1)C(=O)Nc1nnc(NC(=O)c2ccccc2)s1` the IC50 was 34.1 µM (cell growth or viability, MTT; 48 h).
`COc1ccc(-n2c(SCC(=O)NNC(=O)Nc3ccccc3)nc3ccccc3c2=O)cc1` gave an IC50 of 4.42 ± 0.2 µM.
For `O=c1c(/C=C/c2ccccc2)nc2ccccc2n1Cc1ccccc1`, the IC50 was over 50 µM (cell growth or viability, MTT; 72 h).
`CNC(=O)c1cc(Oc2ccc(NC(=O)Nc3ccc(Cl)c(C(F)(F)F)c3)cc2)ccn1` gave an IC50 of 0.176 µM (cell growth or viability, MTT; 48 h).
With `Cn1c(=O)c(/C=C/c2ccccc2Br)nc2ccccc21` the IC50 was 19.5 µM (cell growth or viability, MTT; 72 h).
`COc1ccc(NC(=O)NNC(=O)CSc2nc3ccccc3c(=O)n2-c2ccc(Cl)cc2)cc1` gave an IC50 of 51.5 ± 2.7 µM.
The IC50 of `Cn1c(=O)c(/C=C/c2ccccn2)nc2ccccc21` is reported as 7.62 µM (cell growth or viability, MTT; 72 h).
For `CN1CCC2(CC1)C/C(=N\N=C\c1ccc(Cl)cc1)c1ccccc1O2`, the IC50 was 13.5 ± 0.57 µM (48 h).
For `O=c1[nH]c2ccccc2nc1/C=C/c1ccccn1`, the IC50 was 0.27 µM (cell growth or viability, MTT; 72 h).
`O=C(CSc1nc2ccccc2c(=O)n1-c1ccc(Cl)cc1)NNC(=O)NCc1ccccc1` has an IC50 of 79.5 ± 4.3 µM.
With `CN1CCC2(CC1)C/C(=N\N=C\c1ccc(O)cc1)c1ccccc1O2` the IC50 was 2.68 ± 0.11 µM (48 h).
With `N#CC(C(=O)Nc1nnc(NC(=O)c2ccccc2)s1)=C1SC(=O)CN1c1ccccc1` the IC50 was 91.3 µM (cell growth or viability, MTT; 48 h).
`COc1ccc(-n2c(SCC(=O)NNC(=O)Nc3ccc(F)cc3)nc3ccccc3c2=O)cc1` gave an IC50 of 2.83 ± 0.1 µM.
`Fc1ccccc1/C=C/c1nc2ccccc2nc1Cl` gave an IC50 of 18.3 µM (cell growth or viability, MTT; 72 h).
`N#CC(=Cc1ccco1)C(=O)Nc1nnc(NC(=O)c2ccccc2)s1` gave an IC50 of 52.6 µM (cell growth or viability, MTT; 48 h).
`N#CCSc1nc2c3cnn(C(=O)CNc4ccc(F)cc4)c3ncn2n1` has an IC50 of 0.052 µM (cell growth or viability, MTT; 48 h).
For `CC(C)=CCC/C(C)=C/CC/C(C)=C/CC/C=C(\C)CC/C=C(\C)CCC=C(C)C`, the IC50 was 9.96 µg/mL (cell growth or viability, resazurin; 96 h).
With `O=c1[nH]c2ccccc2nc1/C=C/c1ccccc1Cl` the IC50 was 7.17 µM (cell growth or viability, MTT; 72 h).
For `CC(=O)OCC(CSc1nc2c3cnn(C(=O)CNc4ccc(F)cc4)c3ncn2n1)OC(C)=O` (centres unmarked), the IC50 was 0.007 µM (cell growth or viability, MTT; 48 h).
`O=C(CSc1nc2ccccc2c(=O)n1-c1ccc(Cl)cc1)NNC(=O)Nc1ccc(F)cc1` has an IC50 of 24.8 ± 1.9 µM.

Excerpt of the above:
`COc1cc(O)c2c(c1)O[C@H](c1ccc(O)c(OC)c1)[C@@H](O)C2=O` gave an IC50 of 33 µg/mL (cell growth or viability, MTT; 48 h).
For `O=C(/C=C/c1ccc(F)cc1)c1nc2ccccc2n1Cc1cn([C@@H]2OC[C@@H](O)[C@H](O)[C@H]2O)nn1`, the IC50 was 5.1 µM (cell growth or viability, LDH; 48 h).
With `Oc1c(Cl)cc(Cl)c(Cl)c1Cc1c(O)c(Cl)cc(Cl)c1Cl` the IC50 was about 6 µM (cell growth or viability; 48 h).
`N#CC(=Cc1ccc(Cl)cc1)C(=O)Nc1nnc(NC(=O)c2ccccc2)s1` has an IC50 of 16.2 µM (cell growth or viability, MTT; 48 h).
For `CCSc1nnc(-c2ccc(-c3cc(OC)c(OC)c(OC)c3)nc2C)o1`, the IC50 was 9.74 µM (cell growth or viability, MTT).
The IC50 of `COC(CSc1nc2c3cnn(C(=O)CNc4ccc(C)cc4)c3ncn2n1)OC` is reported as 0.51 µM (cell growth or viability, MTT; 48 h).
